Measurements pooled from the literature.
± marks the error that the study gave.
T1: RNA aptamer; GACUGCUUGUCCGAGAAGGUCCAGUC

With CC(=O)NCCN(CCC(=O)NCCN(CCC(=O)NCCN(CCC(=O)NCCC(N)=O)C(=O)[C@@H](N)Cc1ccccc1)C(=O)[C@@H](N)CCCNC(=N)N)C(=O)[C@@H](N)CCCNC(=N)N the non-electrostatic TΔS° was -5.57 ± 0.311 kcal/mol (HIV-1 TAR RNA).
The koff of CC[C@H](C)[C@H](NC(=O)[C@H](CCC(=O)O)NC(=O)[C@H](CO)NC(=O)[C@@H](NC(=O)[C@@H](N)CO)C(C)C)C(=O)N[C@@H](CCC(N)=O)C(=O)N[C@@H](CC(C)C)C(=O)N[C@@H](CCSC)C(=O)N[C@@H](Cc1c[nH]cn1)C(=O)N[C@@H](CC(N)=O)C(=O)N[C@@H](CC(C)C)C(=O)NCC(=O)N[C@@H](CCCCN)C(=O)N[C@@H](Cc1c[nH]cn1)C(=O)N[C@@H](CC(C)C)C(=O)N[C@@H](CC(N)=O)C(=O)N[C@@H](CO)C(=O)N[C@@H](CCSC)C(=O)N[C@@H](CCC(=O)O)C(=O)N[C@@H](CCCNC(=N)N)C(=O)N[C@H](C(=O)N[C@@H](CCC(=O)O)C(=O)N[C@@H](Cc1c[nH]c2ccccc12)C(=O)N[C@@H](CC(C)C)C(=O)N[C@@H](CCCNC(=N)N)C(=O)N[C@@H](CCCCN)C(=O)N[C@@H](CCCCN)C(=O)N[C@@H](CC(C)C)C(=O)N[C@@H](CCC(N)=O)C(=O)N[C@@H](CC(=O)O)C(=O)N[C@H](C(=O)N[C@@H](Cc1c[nH]cn1)C(=O)N[C@@H](CC(N)=O)C(=O)N[C@@H](Cc1ccccc1)C(=O)N[C@@H](CCCCNC(=O)c1ccc2c(c1)C1(OC2=O)c2ccc(N(C)C)cc2Oc2cc(N(C)C)ccc21)C(N)=O)C(C)C)C(C)C is reported as 0.0049 ± 0.002 s⁻¹ (PTH1R (Homo sapiens, UniProt Q03431); binding, NanoBRET; pH 7.5, HEPES buffer).
C=C[C@]12CCC(=O)C=C1CC[C@H]1[C@@H]3CC[C@H](C(C)=O)[C@@]3(C)CC[C@@H]12 gave a PKA activation of 159 ± 8.94% (Membrane progesterone receptor epsilon (Paqr9, Mus musculus, UniProt Q6TCG2); pPKA/PKA immunoblot; MDA-MB-231 expressing Paqr9-GFP; 100 nM, 20 min; relative to: control).
Cc1ccccc1CN1CCN(C(=O)c2cccnc2)CC1 gave a ligand efficiency of 0.15 (MAPK14 (Homo sapiens, UniProt Q16539); enzyme activity).
For COc1cc(C(=O)NC2CCC(N3CCN(CC4CCC5(CCCC5)C4)CC3)CC2)c(F)cc1Nc1ncc2c(n1)N(C1CCCC1(F)F)CC(F)(F)C(=O)N2C (stereo not drawn), the inhibition was 0.2% (YES1 (Homo sapiens, UniProt P07947); cell-free assay, TR-FRET; 10 µM).
The Hill slope of C=CCC(=N)NCCC[C@H](N)C(=O)O is reported as 1.7 ± 0.15 (Nos1 (Rattus norvegicus, UniProt P29476); NMDA-evoked cGMP accumulation, inhibitor; immature rat cerebellar slices; 25 min pre-incubation).
Under “specific activity ratio”, CCCCCC(=O)Nc1ccc(OC)nc1C is recorded as 1.5 (CES1 (Homo sapiens, UniProt P23141); enzyme activity, substrate; relative to: CES1 over human CES2).
CC(=O)NCCN(CC(=O)NCCN(CC(=O)NCCN(CC(=O)NCCC(N)=O)C(=O)[C@@H](N)CCCNC(=N)N)C(=O)[C@@H](N)CCCNC(=N)N)C(=O)[C@@H](N)Cc1ccccc1 — result for “binding free energy ΔG°”: -8.6 ± 0.454 kcal/mol (HIV-1 TAR RNA; 25 °C).
For CC(C)CCC[C@@H](C)[C@H]1CC[C@H]2[C@@H]3CC=C4C[C@@H](OS(=O)(=O)O)CC[C@]4(C)[C@H]3CC[C@]12C, the maximal inhibition was 26 ± 6.6% (Prothrombin (F2, Homo sapiens, UniProt P00734); fibrinogen clotting, inhibitor, turbidity; pH 7.4).
CS(=O)(=O)CCC1NC(=O)C(Cc2ccco2)NC(=O)C(CC2CC2)NC(=O)C=CC(=O)NC(C(N)=O)CCNC1=O (stereo not drawn) has an enrichment factor of 1.3 (AKT3 (Homo sapiens, UniProt Q9Y243); DNA-templated library selection; one selection round).
CC[C@H](C)[C@H](NC(=O)[C@@H](NC(=O)[C@H](C)NC(=O)[C@@H](NC(=O)[C@H](Cc1c[nH]c2ccccc12)NC(=O)[C@H](CCC(=O)O)NC(=O)[C@H](CO)NC(=S)Nc1ccc2c(c1)C(=O)OC21c2ccc(O)cc2Oc2cc(O)ccc21)C(C)C)C(C)C)C(=O)N1CCC[C@H]1C(=O)N[C@@H](Cc1ccccc1)C(=O)N[C@@H](CC(C)C)C(=O)N[C@H](C(=O)N[C@@H](CC(N)=O)C(=O)N[C@@H](CC(C)C)C(=O)O)[C@@H](C)O — result for “fold decrease in affinity”: over 15 fold (Rgg transcriptional regulator (Streptococcus pneumoniae, UniProt A0A0E7KI02); binding, fluorescence polarization; relative to: wild-type peptide).
NC[C@@H]1O[C@H](O[C@H]2[C@@H](O)[C@H](O[C@@H]3[C@@H](O)[C@H](N)C[C@H](N)[C@H]3O[C@H]3O[C@H](CN)[C@@H](O)[C@H](O)[C@H]3N)O[C@@H]2CO)[C@H](N)[C@@H](O)[C@@H]1O — result for “melting temperature change”: 20.2 °C (T1, RNA aptamer; UV melting; 1 µM RNA, 10 µM molecule, pH 6.8, NaCl 100 mM).

Excerpt of the above:
With CC(=O)NCCN(CCC(=O)NCCN(CCC(=O)NCCN(CCC(=O)NCCC(N)=O)C(=O)[C@@H](N)Cc1ccccc1)C(=O)[C@@H](N)CCCNC(=N)N)C(=O)[C@@H](N)CCCNC(=N)N the non-electrostatic TΔS° was -5.57 ± 0.311 kcal/mol (HIV-1 TAR RNA).
